Earlier results, collected from citations in different studies.
Protocols differ between the studies behind these lines. ± gives the spread as reported.
UniProt Q96RR4, sequence (whole entry, looked up): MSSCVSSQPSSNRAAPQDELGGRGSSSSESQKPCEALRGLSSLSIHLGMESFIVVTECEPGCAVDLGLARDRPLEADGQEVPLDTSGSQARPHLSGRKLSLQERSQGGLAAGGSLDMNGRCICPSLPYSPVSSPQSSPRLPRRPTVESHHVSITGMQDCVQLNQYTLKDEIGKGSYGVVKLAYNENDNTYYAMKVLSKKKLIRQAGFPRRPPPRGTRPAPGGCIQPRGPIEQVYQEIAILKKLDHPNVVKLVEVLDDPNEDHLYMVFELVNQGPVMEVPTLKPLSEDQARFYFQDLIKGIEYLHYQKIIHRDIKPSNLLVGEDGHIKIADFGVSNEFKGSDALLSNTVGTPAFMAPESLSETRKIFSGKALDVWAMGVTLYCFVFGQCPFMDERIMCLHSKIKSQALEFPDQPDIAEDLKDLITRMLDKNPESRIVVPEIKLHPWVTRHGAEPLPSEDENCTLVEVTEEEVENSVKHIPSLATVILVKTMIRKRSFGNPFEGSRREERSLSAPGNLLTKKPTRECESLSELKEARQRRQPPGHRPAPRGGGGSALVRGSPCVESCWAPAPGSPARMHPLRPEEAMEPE

COc1cccc(-c2cc(F)ccc2[C@H]2Cc3nc(N)nc(C)c3C(=O)N2)n1 gave an IC50 of 0.0085 µM (Grp94).
For O=C(O)C(Cc1ccc2c(c1)oc1ccccc12)NCP(=O)(O)O (stereo not shown), the IC50 was 2.3 µM (neprilysin; inhibitor).
For Nc1ncnc2c1ncn2[C@@H]1O[C@H](C[C@@H](N)CC[C@H](N)C(=O)O)[C@@H](O)[C@H]1O, the IC50 was 26 ± 4.5 µM (NSD2; enzyme activity, inhibitor).
The IC50 of O=c1c(O)c(-c2ccc(O)c(O)c2)oc2cc(O)cc(O)c12 is reported as 22.7 ± 2.3 µM (dengue virus 3 NS2B-NS3 protease; enzyme activity, inhibitor; pH 9.0).
With O=C(O)/C=C/c1ccc2c(-c3ccccc3)onc2c1 the IC50 was 43.8 µM (IP6K2).
For Nc1cc(C(F)(F)F)c(-c2nc(N3CCOCC3)nc(N3CCOCC3)n2)cn1, the remaining activity was 100% (CAMKK2 (Homo sapiens, UniProt Q96RR4); enzyme activity; 10 µM; relative to: untreated).
CC(=O)c1c(-c2ccncc2)[nH]c(-c2ccncc2)c1C gave an IC50 of 0.717 µM (CSNK1G1; kinase activity, inhibitor).
For CCN(CC)CCCCNc1ncc2cc(-c3cc(OC)cc(OC)c3)c(NC(=O)NC(C)(C)C)nc2n1, the IC50 was 17.6 µM (PDGFRβ; inhibitor).
COc1cc2c(Nc3ccc(Cl)c(Cl)c3F)ncnc2cc1OC[C@@H]1C[C@@H]2CN(C)C[C@@H]2C1 gave an IC50 of 0.0015 µM (VEGFR2).
For Nn1cnc2scc(-c3ccc(Cc4ccccc4)cc3)c2c1=O, the IC50 was 15.6 µM (β-arrestin 2).
For CN(CCN)Cc1csc(-c2ccc(C(=N)N)nc2)n1, the IC50 was 29.7 µM (PRMT6).
CN1CCN(c2ccc3nc(-c4c(N)c5c(F)cccc5[nH]c4=O)[nH]c3c2)CC1 has an IC50 of over 10 µM (PI3-K; inhibitor).
CC1(C)S[C@@H]2[C@H](NC(=O)[C@H](N)c3ccccc3)C(=O)N2[C@H]1C(=O)O has an MIC of over 16 µg/mL (Acinetobacter baumannii; clinical isolate RKI-No_271/16).
With COC1CCN(C(=O)c2cc(Cc3n[nH]c(=O)c4ccccc34)ccc2F)CC1 the IC50 was 0.2 µM (PARP3; enzyme activity, inhibitor).
For CN1C(C(=O)Nc2ccccn2)=C(O)c2sc(Cl)cc2S1(=O)=O, the IC50 was 9 ± 6 µM (NR4A1 (Nur77); inverse agonist, cellular).
CNCCN(C)Cc1c[nH]nc1C1CCC2(CC1)CC(C)(C)CO2 (stereo not shown) has an IC50 of 0.0017 µM (PRMT8).
COc1ccc(-c2ccc3ncc4c(c3c2)n(-c2ccc(N3CCNCC3)c(C(F)(F)F)c2)c(=O)n4C)cn1 gave an IC50 of 0.038 µM (PI3K gamma).
For COc1cc(N2CCC3(CCN(C)CC3)CC2)ccc1Nc1ncc(Cl)c(Nc2ccccc2P(C)(C)=O)n1, the IC50 was 0.036 µM (ALK L1196M).
For Oc1ccc(/C=C/c2cc(O)cc(O)c2)cc1, the IC50 was 2.7 µM (lipoxygenase).
Clc1ccc(C2(c3ccc(-c4cn[nH]c4)cc3)CCNCC2)cc1 gave an IC50 of 0.02 µM (PKA; inhibitor).
The MIC of CNC(C)C1CCC(N)C(OC2C(N)CC(N)C(OC3OCC(C)(O)C(NC)C3O)C2O)O1 (stereo not shown) is reported as at most 0.5 µg/mL (Enterobacter cloacae; clinical isolate RKI-No_33/16).
The IC50 of CC(C)=CCc1cc2c(cc1O)O[C@H](c1ccc(O)cc1)CC2=O is reported as 4.89 µM (STAT3; phosphorylation; together with: IL-6).
With N=C(N)c1ccc(OCCCCCCOc2ccc(C(=N)N)cc2)cc1 the IC50 was 357 µM (PRMT5).
For N/C(CC(O)c1cc2c(F)cc(F)cc2c2cc(C(F)(F)F)ccc12)=N\c1ccc(F)cc1 (stereo not shown), the IC50 was 9.4 ± 0.3 µM (β-hematin formation; inhibitor; NP-40 detergent).
The IC50 of O=c1[nH]ccc2nc(N[C@@H]3CCCNC3)nc(Nc3ccc(S(=O)(=O)N4CCOCC4)cc3)c12 is reported as 0.882 µM (CSNK1G1; kinase activity, inhibitor).
CC(C)CC(=O)Nc1[nH]nc2c1CN(C(=O)C1CCN(C)CC1)C2(C)C gave an IC50 of 0.01 µM (human CDK7/cyclin H; kinase activity, inhibitor).
CC[C@]1(O)C[C@@H]2CN(CCc3c([nH]c4ccccc34)[C@@](C(=O)OC)(c3cc4c(cc3OC)N(C)[C@H]3[C@@](O)(C(=O)OC)[C@H](OC(C)=O)[C@]5(CC)C=CCN6CC[C@]43[C@@H]65)C2)C1 gave an IC50 of 8.9 µM (nicotinic acetylcholine receptor; cell-free).
O=C1C[C@@H](c2ccc(O)cc2)Oc2cc(O)cc(O)c21 gave an IC50 of 955 µM (MAO-A (rat); inhibitor).
For CCN(CC)CCOC(=O)c1ccc(N)cc1, the IC50 was 45.5 µM (nAChR; inhibitor).
With Cc1c[nH]c(/C=C2\C(=O)Nc3ccccc32)c1CCC(=O)O the IC50 was 10 to 20 µM (ERK1/2; inhibitor).
For Nc1ncnc2c1ncn2[C@@H]1O[C@H](COP(=O)(O)CP(=O)(O)OP(=O)(O)O)[C@@H](O)[C@H]1O, the IC50 was 0.082 µM (P2X receptor; radioligand binding).

A few entries again:
COc1cc2c(Nc3ccc(Cl)c(Cl)c3F)ncnc2cc1OC[C@@H]1C[C@@H]2CN(C)C[C@@H]2C1 gave an IC50 of 0.0015 µM (VEGFR2).
For Nn1cnc2scc(-c3ccc(Cc4ccccc4)cc3)c2c1=O, the IC50 was 15.6 µM (β-arrestin 2).
